Measurements of several laboratories.
Numbered parts are unrelated; each lists some results of a single study. “And” joins repeats or separate records; there may be more than shown. Changes are numbered by the printed parent chain. ± gives the spread as reported.
Sequence of UniProt P41143 (whole entry, looked up): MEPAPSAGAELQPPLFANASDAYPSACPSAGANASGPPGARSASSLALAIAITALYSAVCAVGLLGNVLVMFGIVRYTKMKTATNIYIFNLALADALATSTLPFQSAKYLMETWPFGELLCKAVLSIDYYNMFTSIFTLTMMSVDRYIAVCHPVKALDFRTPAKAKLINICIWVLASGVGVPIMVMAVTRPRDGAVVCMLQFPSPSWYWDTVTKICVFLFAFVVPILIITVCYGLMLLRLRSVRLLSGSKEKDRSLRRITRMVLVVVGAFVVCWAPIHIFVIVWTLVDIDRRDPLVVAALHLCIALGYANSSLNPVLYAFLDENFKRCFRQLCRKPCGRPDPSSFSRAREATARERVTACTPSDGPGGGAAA

Series 1
Target: tungstate, free oxyanion
Method: microfluidic competitive inhibition
Sample: in vitro, cell-free expressed
Concentration: not given
Notes: derived from inhibition constants, unchanged parent 2230 nM
Reading: lower = stronger binding
Parent: PafA, mature enzyme, eGFP fusion (Elizabethkingia meningoseptica, UniProt Q9KJX5); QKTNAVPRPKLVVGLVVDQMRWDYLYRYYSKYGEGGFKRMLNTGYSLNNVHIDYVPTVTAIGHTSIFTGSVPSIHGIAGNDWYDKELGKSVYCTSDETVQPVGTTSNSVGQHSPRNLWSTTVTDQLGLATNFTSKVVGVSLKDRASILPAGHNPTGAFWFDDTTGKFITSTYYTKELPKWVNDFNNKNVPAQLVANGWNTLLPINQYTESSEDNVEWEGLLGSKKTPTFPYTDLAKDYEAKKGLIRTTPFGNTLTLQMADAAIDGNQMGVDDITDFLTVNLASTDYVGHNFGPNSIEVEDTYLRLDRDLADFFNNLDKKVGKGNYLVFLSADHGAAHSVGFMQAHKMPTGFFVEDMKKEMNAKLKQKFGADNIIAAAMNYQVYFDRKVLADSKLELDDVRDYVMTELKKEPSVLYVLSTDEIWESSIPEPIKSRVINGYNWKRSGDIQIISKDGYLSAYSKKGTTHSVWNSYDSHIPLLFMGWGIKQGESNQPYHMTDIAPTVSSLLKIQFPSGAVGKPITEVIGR
For `V136G`, “oxyanion analog dissociation constant” read 2310 nM.
`T465V`: “oxyanion analog dissociation constant” 1160 nM.
`V99A`: “oxyanion analog dissociation constant” 1930 nM.
`I263V`: “oxyanion analog dissociation constant” 2130 nM.
`Q267G`: “oxyanion analog dissociation constant” 2250 nM.
`Y92G` — result for “oxyanion analog dissociation constant”: 31800 nM.
`L303G` — result for “oxyanion analog dissociation constant”: 2610 nM.
`Q1V` — result for “oxyanion analog dissociation constant”: 1900 nM.

Series 2
Target: UDP-N-acetylglucosamine--peptide N-acetylglucosaminyltransferase 110 kDa subunit (OGT, Homo sapiens, UniProt O15294)
Read-out: binding
Method: phage display NGS
Form: peptide
Concentration: concentration not given
Relative to: input library
Target sequence (O15294 1-1046): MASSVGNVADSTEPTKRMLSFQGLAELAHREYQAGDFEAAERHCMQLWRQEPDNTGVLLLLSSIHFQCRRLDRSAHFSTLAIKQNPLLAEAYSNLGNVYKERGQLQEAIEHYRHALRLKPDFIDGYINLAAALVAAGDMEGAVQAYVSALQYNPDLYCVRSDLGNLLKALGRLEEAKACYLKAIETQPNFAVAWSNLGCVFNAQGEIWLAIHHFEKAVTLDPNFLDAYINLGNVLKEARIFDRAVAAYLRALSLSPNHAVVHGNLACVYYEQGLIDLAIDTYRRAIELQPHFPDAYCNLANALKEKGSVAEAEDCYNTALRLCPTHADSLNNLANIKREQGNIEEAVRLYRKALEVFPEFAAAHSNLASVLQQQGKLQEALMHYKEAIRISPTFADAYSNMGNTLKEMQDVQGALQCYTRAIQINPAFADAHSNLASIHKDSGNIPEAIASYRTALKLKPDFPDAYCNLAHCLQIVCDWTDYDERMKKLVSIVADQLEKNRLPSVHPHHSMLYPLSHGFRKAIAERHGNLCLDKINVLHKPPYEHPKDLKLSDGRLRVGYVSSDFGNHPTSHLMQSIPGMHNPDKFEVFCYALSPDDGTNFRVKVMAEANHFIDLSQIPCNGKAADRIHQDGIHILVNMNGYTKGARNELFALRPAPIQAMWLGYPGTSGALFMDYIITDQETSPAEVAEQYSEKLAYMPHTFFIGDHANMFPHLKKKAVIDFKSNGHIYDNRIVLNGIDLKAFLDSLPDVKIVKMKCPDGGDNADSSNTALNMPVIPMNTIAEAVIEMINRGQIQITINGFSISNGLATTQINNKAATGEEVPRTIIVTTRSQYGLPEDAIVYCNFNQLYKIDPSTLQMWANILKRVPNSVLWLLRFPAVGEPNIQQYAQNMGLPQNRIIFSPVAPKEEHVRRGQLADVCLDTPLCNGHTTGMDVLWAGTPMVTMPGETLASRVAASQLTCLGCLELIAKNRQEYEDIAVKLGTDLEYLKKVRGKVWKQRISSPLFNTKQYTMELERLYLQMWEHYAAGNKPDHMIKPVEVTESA
`SSYMPQYQISFLKKE` — result for “enrichment fold change”: 3.49.
For `TITHNRTPWGSHHIH`, “enrichment fold change” read 10.6.
`HTVDFRWEHRWHPHS`: “enrichment fold change” 3.37.
`TQTQWKFHHYWESHS` — result for “enrichment fold change”: 4.29.
`HDLHSKHGNTQPHDH` — result for “enrichment fold change”: 3.1.
Under “enrichment fold change”, `HVQDLAVYHSHHWH` is recorded as 3.62.
`FPYLPQYQISPDYFS`: “enrichment fold change” 2.84 and 4.69.
`HLSAMHPELHYHGNH`: “enrichment fold change” 8.02.

Mixed results
For `Cc1c(OCC(F)(F)F)ccnc1C[S+]([O-])c1nc2ccccc2[nH]1` (stereo not drawn), the inhibition was 5.7% (chymotrypsin; enzyme activity, inhibitor; 10 µM, with DTT).
`C[C@]12C=CC(=O)N[C@@H]1CC[C@@H]1[C@@H]2CC[C@]2(C)[C@@H](C(=O)Nc3cc(C(F)(F)F)ccc3C(F)(F)F)CC[C@@H]12` gave a GFP-positive cells of 119% (HEK-293T; pseudovirus infection, FDA-approved drug library counter-screen; VSV pseudotyped with VSV-G; 10 µM, 16 h; relative to: vehicle-treated).
For `O=C1OC2(c3cc(I)c(O)c(I)c3Oc3c2cc(I)c(O)c3I)c2c(Cl)c(Cl)c(Cl)c(Cl)c21`, the inhibition was -3% (chymotrypsin; enzyme activity, inhibitor; 10 µM, with DTT).
`CCN(CC)C(=O)c1ccc(C2=CC3(CCNCC3)Oc3cccc(O)c32)cc1` has an Emax of 102 ± 3% (Delta-type opioid receptor, with Gi2 (OPRD1, Homo sapiens, UniProt P41143); human cells).
`CC(=O)OCC(=O)[C@@]1(OC(C)=O)[C@@H](C)C[C@H]2[C@@H]3C[C@H](F)C4=CC(=O)C=C[C@]4(C)[C@@]3(F)[C@@H](O)C[C@@]21C` gave a GFP-positive cells of 111% (HEK-293T; pseudovirus infection, FDA-approved drug library counter-screen; VSV pseudotyped with VSV-G; 10 µM, 16 h; relative to: vehicle-treated).

Some of these lines once more (mixed results):
For `Cc1c(OCC(F)(F)F)ccnc1C[S+]([O-])c1nc2ccccc2[nH]1` (stereo not drawn), the inhibition was 5.7% (chymotrypsin; enzyme activity, inhibitor; 10 µM, with DTT).
`C[C@]12C=CC(=O)N[C@@H]1CC[C@@H]1[C@@H]2CC[C@]2(C)[C@@H](C(=O)Nc3cc(C(F)(F)F)ccc3C(F)(F)F)CC[C@@H]12` gave a GFP-positive cells of 119% (HEK-293T; pseudovirus infection, FDA-approved drug library counter-screen; VSV pseudotyped with VSV-G; 10 µM, 16 h; relative to: vehicle-treated).
For `O=C1OC2(c3cc(I)c(O)c(I)c3Oc3c2cc(I)c(O)c3I)c2c(Cl)c(Cl)c(Cl)c(Cl)c21`, the inhibition was -3% (chymotrypsin; enzyme activity, inhibitor; 10 µM, with DTT).
